Measurements of several laboratories.
Compare with care: the assays were run in different laboratories. Several values in a cell are separate wells, animals, samples, runs or records. ± gives the spread as reported.

Substance	organism	test	test system	setting	scale	quantity	value
[O-][N+]1=C(c2ccc(Cl)cc2)C2=NCCCCN2c2ccccc21	Bacteroides thetaiotaomicron	microbial growth	ATCC29148			MIC	1 µg/mL
O=C(NCc1ccc(F)cc1F)c1cn2ccn(CCCCCCO)c(=O)c2c(O)c1=O	human immunodeficiency virus 1	single-round vector infection	integrase R263K			EC50	6 ± 0.6 nM
Cc1cc(/C=C/C#N)cc(C)c1-n1cnc2cnc(Nc3ccc(C#N)cc3)nc21	HIV-1	viral replication, single-round infection	RT mutant K101E/M184I			EC50	0.5 ± 0.3 nM
O=C(NCc1ccc(F)cc1F)c1cn2c(c(O)c1=O)C(=O)N(CCCCCO)CC2	human immunodeficiency virus 1	single-round vector infection	integrase G140S/Q148H			EC50	1200 ± 120 nM
Cc1cc(C#N)cc(C)c1Oc1nc(NC2CCN(Cc3ccncc3)CC2)nc2ccccc12	HIV-1 GH9	viral replication	TZM-bl, K101P/K103N/V108I			EC50	142 ± 35.1 nM
ivermectin	human adenovirus C5	reporter gene	A549	1 µM, 72 h, with: digitoxin	baseline: DMSO control	viral replication	71.9 ± 10.2%
CC[C@H](C)[C@H](NC(=O)[C@H](CCC(N)=O)NC(=O)[C@H](CCC(=O)O)NC(C)=O)C(=O)N[C@@H](Cc1c[nH]c2ccccc12)C(=O)N[C@@H](CC(N)=O)C(=O)N[C@@H](CC(N)=O)C(=O)N[C@@H](CCSC)C(=O)N[C@H](C(=O)N[C@@H](Cc1c[nH]c2ccccc12)C(=O)N[C@@H](CCSC)C(=O)N[C@@H](CCC(=O)O)C(=O)N[C@@H](Cc1c[nH]c2ccccc12)C(=O)N[C@@H](CC(=O)O)C(=O)N[C@@H](CCCNC(=N)N)C(=O)N[C@@H](CCC(=O)O)C(=O)N[C@H](C(=O)N[C@@H](CC(N)=O)C(=O)N[C@@H](CC(N)=O)C(=O)N[C@@H](Cc1ccc(O)cc1)C(=O)N[C@H](C(=O)N[C@@H](CO)C(=O)N[C@@H](CC(C)C)C(=O)N[C@H](C(=O)N[C@@H](Cc1c[nH]cn1)C(=O)N[C@@H](CO)C(=O)N[C@@H](CC(C)C)C(=O)N[C@H](C(=O)N[C@@H](CCC(=O)O)C(=O)N[C@@H](CCC(=O)O)C(=O)N[C@@H](CO)C(=O)N[C@@H](CCC(N)=O)C(N)=O)[C@@H](C)CC)[C@@H](C)CC)[C@@H](C)O)[C@@H](C)CC)[C@@H](C)O	HIV-1 NL4-3	viral infection, SEAP reporter	CEMx174 SEAP reporter cells	3 days		IC50	26.5 nM
O=C(NCc1ccc(F)cc1F)c1cn2c(c(O)c1=O)C(=O)N(CCCCCCO)CC2	human immunodeficiency virus 1	single-round vector infection	integrase G140S/Q148H			EC50	300 ± 9.5 nM
COc1ccc(C2=[N+]([O-])c3ccccc3N3CCN=C23)cc1	Bacteroides thetaiotaomicron	microbial growth	ATCC29148			MIC	≤ 0.06 µg/mL
CC(C)CC(C)N1CCn2cc(C(=O)NCc3ccc(F)cc3F)c(=O)c(O)c2C1=O (stereo not shown)	human immunodeficiency virus 1	single-round vector infection	integrase N155H			EC50	10 ± 0.7 nM
C[N+]1=C2C(c3ccccc3)=[N+]([O-])c3ccccc3N2CCC1	Bacteroides thetaiotaomicron	microbial growth	ATCC29148			MIC	2 µg/mL
CCCCCCCCCCCCCCC[C@@H](O)[C@H](CO)NC(=O)NCCCC[C@H](NC(=O)[C@H](CC(C)C)NC(=O)[C@@H](NC(=O)[C@H](CCCNC(=N)N)NC(=O)[C@H](C)NC(=O)[C@H](CCC(N)=O)NC(=O)[C@H](CC(C)C)NC(=O)[C@H](CCC(N)=O)NC(=O)[C@H](CCCCN)NC(=O)[C@@H](NC(=O)CNC(=O)[C@H](Cc1c[nH]c2ccccc12)NC(=O)[C@@H](NC(=O)[C@@H](NC(=O)[C@H](CC(C)C)NC(=O)[C@H](CCC(N)=O)NC(=O)[C@H](CC(C)C)NC(=O)[C@@H](N)CC(C)C)[C@@H](C)O)C(C)C)[C@@H](C)CC)[C@@H](C)CC)C(N)=O	HIV-1 HXB2	viral infectivity, luciferase reporter	TZM-bl			IC50	287 ± 143 nM
CC(C)N1CCn2cc(C(=O)NCc3ccc(F)cc3F)c(=O)c(O)c2C1=O	human immunodeficiency virus 1	single-round vector infection	integrase R263K			EC50	5.2 ± 0.8 nM
CC[C@H](C)[C@H](NC(=O)[C@H](CCCCN)NC(=O)[C@H](Cc1ccc(O)cc1)NC(=O)[C@H](CCC(N)=O)NC(=O)[C@H](Cc1c[nH]cn1)NC(=O)[C@@H](NC(=O)[C@H](Cc1ccccc1)NC(=O)[C@H](Cc1c[nH]cn1)NC(=O)[C@@H](NC(=O)[C@@H](NC(=O)CNC(=O)[C@H](CCCNC(=N)N)NC(=O)[C@H](Cc1c[nH]c2ccccc12)NC(=O)[C@H](CC(C)C)NC(=O)[C@H](CO)NC(=O)[C@H](CCC(=O)O)NC(=O)[C@H](CC(C)C)NC(=O)[C@H](CCC(=O)O)NC(=O)[C@H](CC(N)=O)NC(=O)[C@H](CC(C)C)NC(=O)[C@H](CC(=O)O)NC(=O)[C@H](CO)NC(=O)[C@H](CCC(=O)O)NC(=O)[C@@H](NC(=O)[C@H](CC(C)C)NC(=O)[C@H](CCC(N)=O)NC(=O)[C@H](CCC(=O)O)NC(=O)[C@H](CCC(=O)O)NC(=O)[C@H](CC(C)C)NC(=O)[C@@H]1CCCN1C(=O)[C@@H](N)Cc1ccccc1)[C@@H](C)O)[C@@H](C)O)[C@@H](C)O)C(C)C)C(=O)N[C@@H](CCSC)C(=O)N1CCC[C@H]1C(=O)N[C@@H](Cc1ccccc1)C(=O)N[C@@H](CCCNC(=N)N)C(=O)N[C@@H](CCCCN)C(=O)N[C@@H](CC(C)C)C(=O)N[C@H](C(=O)N[C@@H](Cc1ccccc1)C(=O)N[C@@H](CCCCN)C(=O)N[C@@H](CCCNC(=N)N)C(=O)N[C@@H](CCCNC(=N)N)C(=O)N[C@@H](CCCCN)C(=O)N[C@@H](CC(N)=O)C(N)=O)C(C)C	Candida albicans	ATP luminescence	FH2173	48 h		MIC	> 50 µM
Cc1cc(/C=C/C#N)cc(C)c1Nc1nc(Nc2ccc(C#N)cc2)ncc1N	HIV-1	viral replication, single-round infection	RT mutant L100I/K103N			EC50	1.7 ± 0.4 nM
CCCOC(=O)N1c2cc(CNC)ccc2[C@H](NC(=O)C(=O)Nc2ccc(Cl)c(F)c2)[C@H]1CNC(=N)N	HIV-1 AD8 Env E64G/S375N	viral infection				IC50	60000 nM and < 75000 nM
O=C(NCc1ccc(F)cc1F)c1cn2c(c(O)c1=O)C(=O)N(CCCCO)CC2	human immunodeficiency virus 1	single-round vector infection	integrase R263K			EC50	110 ± 17.3 nM
[O-][N+]1=C(c2ccc(Cl)cc2)C2=NCCCN2c2ccccc21	Bacteroides thetaiotaomicron	microbial growth	ATCC29148			MIC	1 µg/mL
Cc1nc([C@H](NC(=O)c2ccc(-c3ccc(Cl)cc3)[nH]2)[C@H]2CCCCN2)sc1CO	HIV-1	viral replication	MT-2, IIIB			IC50	800 nM and ≥ 800 nM

For quick reference, copied from above:
Substance	organism	test	test system	setting	scale	quantity	value
Cc1cc(/C=C/C#N)cc(C)c1-n1cnc2cnc(Nc3ccc(C#N)cc3)nc21	HIV-1	viral replication, single-round infection	RT mutant K101E/M184I			EC50	0.5 ± 0.3 nM
O=C(NCc1ccc(F)cc1F)c1cn2c(c(O)c1=O)C(=O)N(CCCCCO)CC2	human immunodeficiency virus 1	single-round vector infection	integrase G140S/Q148H			EC50	1200 ± 120 nM
